{"data": "Experimental data collected from several papers", "note": "Lines come from different studies, so protocols differ. ± gives the spread as reported."}
{"SMILES": "CC[C@H](C)[C@H](NC(=O)[C@H](Cc1ccccc1)NC(=O)[C@H](CCC(=O)O)NC(=O)[C@H](CCCNC(=N)N)NC(=O)[C@H](C)NC(=O)[C@H](C)NC(=O)[C@H](CCC(N)=O)NC(=O)[C@H](CCC(=O)O)NC(=O)[C@H](CCC(=O)O)NC(=O)[C@H](CC(C)C)NC(=O)[C@H](Cc1ccc(O)cc1)NC(=O)[C@H](CO)NC(=O)[C@H](CO)NC(=O)[C@@H](NC(=O)[C@H](CC(=O)O)NC(=O)[C@H](CO)NC(=O)[C@@H](NC(=O)[C@H](Cc1ccccc1)NC(=O)[C@@H](NC(=O)CNC(=O)[C@H](CCC(=O)O)NC(=O)[C@H](C)NC(=O)CCc1cnc[nH]1)[C@@H](C)O)[C@@H](C)O)C(C)C)C(=O)N[C@@H](C)C(=O)N[C@@H](Cc1c[nH]c2ccccc12)C(=O)N[C@@H](CC(C)C)C(=O)N[C@H](C(=O)N[C@@H](CCCNC(=N)N)C(=O)NCC(=O)N[C@@H](CCCNC(=N)N)C(=O)N[C@@H](CCCCNC(=O)COCCOCCNC(=O)COCCOCCNC(=O)CC[C@H](NC(=O)CCCCCCCCCCCCCCCCC(=O)O)C(=O)O)C(=O)NCC(=O)NCC(=O)N[C@@H](CO)C(=O)N[C@@H](CCCCNC(=O)[C@H](CCCCNC(=O)[C@H](CCCCNc1c(NCCCCCN(O)C(=O)CCC(=O)NCCCCCN(O)C(=O)CCC(=O)NCCCCCN(O)C(C)=O)c(=O)c1=O)Nc1c(NCCCCCN(O)C(=O)CCC(=O)NCCCCCN(O)C(=O)CCC(=O)NCCCCCN(O)C(C)=O)c(=O)c1=O)NC(=O)[C@H](CCCCNc1c(NCCCCCN(O)C(=O)CCC(=O)NCCCCCN(O)C(=O)CCC(=O)NCCCCCN(O)C(C)=O)c(=O)c1=O)Nc1c(NCCCCCN(O)C(=O)CCC(=O)NCCCCCN(O)C(=O)CCC(=O)NCCCCCN(O)C(C)=O)c(=O)c1=O)C(=O)O)C(C)C [zirconium-89 labelled]", "assay": "ex vivo gamma counting", "test system": "male Sprague-Dawley rats, stomach", "setting": "intravenous, 1 nmol, 24 h", "measurement": "tissue uptake", "result": "0.227 %ID/g"}
{"SMILES": "O[C@H]1CCCN[C@@H]1CCCn1cnc2c(Cl)c(Cl)ccc21", "test system": "healthy CYP2D6 EM and UM, plasma", "setting": "oral, 150 mg multiple doses", "measurement": "Cmax at steady state", "result": "229 ng/mL"}
{"SMILES": "NCCCS(=O)(=O)O", "test system": "human", "setting": "oral, 265 mg twice daily, 2 h post-dose, week 65", "measurement": "plasma concentration", "result": "1130 ng/mL"}
{"SMILES": "CCCCCOc1ccc(-c2ccc(-c3ccc(C(=O)N[C@H]4C[C@@H](O)[C@@H](OCC[N+](C)(C)C)NC(=O)[C@@H]5[C@@H](O)[C@@H](C)CN5C(=O)[C@H]([C@@H](C)O)NC(=O)[C@H]([C@H](O)[C@@H](O)c5ccc(O)cc5)NC(=O)[C@@H]5C[C@@H](O)CN5C(=O)[C@H]([C@@H](C)O)NC4=O)cc3)cc2)cc1", "test system": "adult patients in ICU, plasma", "setting": "intravenous, 400 mg loading, after first dose, mean", "measurement": "Cmax", "result": "18600 ng/mL"}
{"SMILES": "[O-][S+]1CCc2nc(N3CCC(c4ncc(Cl)cn4)CC3)nc(NC3(CO)CCC3)c21 (centres unmarked)", "test system": "healthy male humans", "setting": "36 mg single dose, after last dose", "measurement": "serum alanine aminotransferase", "result": "16.1 U/L"}
{"SMILES": "CN(C(=O)n1cnc(-c2ccc[n+]([O-])c2)c1)C1CCCCC1", "test system": "culture medium without cells", "setting": "100 nM, 1 h", "measurement": "concentration", "result": "93.8 ± 2.5 nM"}
{"SMILES": "Nc1nc2cc(-c3ccc4ncc(C(=O)N5CCOCC5)n4c3)ccc2o1", "assay": "measured: Hyperglycemia, any cause, all grades", "test system": "patients with advanced solid tumours", "setting": "dose not given", "measurement": "patients with adverse events", "result": "37%"}
{"SMILES": "CC(C)(O)c1cc(Nc2cc(Oc3cn(C4CC4)nc3C3CCOCC3)ccn2)ccn1", "assay": "Cough", "test system": "patients with advanced cancer, grade 4 glioma expansion", "setting": "oral, 50 mg twice daily, grade ≥3, 2 weeks on/2 weeks off schedule", "measurement": "treatment-related adverse events", "result": "0%"}
{"SMILES": "COc1cc2c(Oc3ccc4[nH]c(C)cc4c3F)ccnc2cc1OCC1(N)CC1", "test system": "paediatric refractory sarcoma patients", "setting": "12 mg", "measurement": "Haematochezia incidence", "result": "9.1%"}
{"SMILES": "CCN1[C@@H](C(=O)NC23CCC(C(=O)O)(CC2)CC3)[C@H](c2cccc(Cl)c2F)[C@]2(C(=O)Nc3cc(Cl)ccc32)C12CCCCC2", "test system": "patients with advanced solid tumours", "setting": "oral, 100 mg", "measurement": "Dizziness incidence", "result": "9.1%"}
{"SMILES": "CO[C@H]1C[C@@H]2CC[C@@H](C)[C@@](O)(O2)C(=O)C(=O)N2CCCC[C@H]2C(=O)O[C@H]([C@H](C)C[C@@H]2CC[C@@H](OC(=O)NCCOCCOCCOCCOCCOCCOCCOCCOCCC(=O)N3CCc4cc(Cn5nc(-c6ccc7oc(N)nc7c6)c6c(N)ncnc65)ccc4C3)[C@H](OC)C2)C[C@@H](O)[C@H](C)/C=C(\\C)[C@@H](O)[C@@H](OC)C(=O)[C@H](C)C[C@H](C)/C=C/C=C/C=C/1C", "test system": "patients with advanced solid tumours", "setting": "intravenous, 16 mg weekly, grade 3 or higher", "measurement": "AE leading to dose reduction", "result": "50%"}
{"SMILES": "C[C@@H]1OC(=O)NN=C1c1ccc(-c2ccc(F)cc2)c(C(F)(F)F)c1", "assay": "phase I trial, measured: non-cardiac chest pain", "test system": "human patients", "setting": "10 mg load, 0.5 mg daily, worst grade 1", "measurement": "patients with TEAE", "result": "100%"}
{"SMILES": "Cc1cccc(Cn2nc(C3CC3)c3c(NC(=O)c4cnc5cc(OCCN6CCN(C)CC6)ccn45)cccc32)n1", "assay": "CTCAE v4.03, measured: nausea", "test system": "platinum-resistant ovarian cancer patients", "setting": "oral, dose not given, with: pembrolizumab IV every 3 weeks", "measurement": "all-cause adverse events", "result": "45.5%"}
{"SMILES": "CC(C)=CC1C(C(=O)OC(C#N)c2cccc(Oc3ccccc3)c2)C1(C)C (centres unmarked)", "assay": "measured: CYP2C8", "test system": "human, age 1 year", "measurement": "enzyme contribution to clearance", "result": "5.79%"}
